Experimental data from different studies.
Protocols differ between the studies behind these lines.
EGFR L858R: Epidermal growth factor receptor (EGFR, Homo sapiens, UniProt P00533, L858R)
EGFR L861Q: Epidermal growth factor receptor (EGFR, Homo sapiens, UniProt P00533, L861Q)
EGFR: Epidermal growth factor receptor (EGFR, Homo sapiens, UniProt P00533)
EGFR del746-750: Epidermal growth factor receptor (EGFR, Homo sapiens, UniProt P00533, del746-750)
EGFR del747-752/P753S: Epidermal growth factor receptor (EGFR, Homo sapiens, UniProt P00533, del747-752/P753S)

Compound | target | test | system | setting | scale | quantity | value
[2H]c1cc(C)c(NC(=O)c2cnc(Nc3cc(N4CCCCC4)nc(C)n3)s2)c(Cl)c1 | EGFR L858R |  |  | 0.01 µM |  | inhibition | < 30%
O=C(NC1CCC1)c1ccc2nc(-c3cccc(NS(=O)(=O)NCCN4CCCCC4)c3)cn2c1 | EGFR L861Q | enzyme activity |  | 10 µM |  | remaining activity | 100%
COc1cc(N2CCN(C)CC2)ccc1Nc1nc(N)n(C(=S)NCc2c(Cl)cccc2Cl)n1 | EGFR (Homo sapiens, UniProt P00533, G719C) | enzyme activity |  | 10 µM | reference: control | remaining activity | 0.5%
CC(C)C[C@H](NC(=O)[C@H](CO)NC(=O)[C@H](CO)NC(=O)CNC(=O)[C@@H]1CCCN1C(=O)[C@H](Cc1ccc(O)cc1)NC(=O)[C@H](CC(C)C)NC(=O)[C@H](CO)NC(=O)[C@H](CS)NC(=O)[C@H](CC(C)C)NC(=O)[C@H](CC(C)C)NC(=O)CCCCCNC(=S)Nc1ccc2c(c1)C(=O)OC21c2ccc(O)cc2Oc2cc(O)ccc21)C(=O)O | EGFR | binding, first site, LigandTracer cell binding | A-431 | FITC-labelled, model, binding, one to two |  | kon | 137 M⁻¹ s⁻¹
CC(C)Oc1cc(N2CCN(C)CC2)ccc1Nc1nc(N)n(C(=O)NCc2ccccc2S(=O)(=O)C(C)C)n1 | EGFR (Homo sapiens, UniProt P00533, del752-759) | enzyme activity |  | 10 µM | reference: control | remaining activity | 27%
COc1cc2ncnc(Nc3ccc(F)c(Cl)c3)c2cc1OCCCN1CCN(C(=O)CCOCCOCCOCCOCCOCCNc2ccc3c(c2)C(=O)N(C2CCC(=O)NC2=O)C3=O)CC1 (stereo not drawn) | EGFR del746-750 | protein degradation, degrader, western blot | HCC827 | 100 nM |  | duration of degradation | ≤ 48 h
CC(C)Cc1ccc(-c2nn(-c3ccc(S(C)(=O)=O)cc3)cc2/C=N/N=c2\[nH]c(-c3ccc([N+](=O)[O-])cc3)cs2)cc1 | EGFR | kinase activity, inhibitor |  | 1 µM |  | inhibition | 64.4%
C=CC(=O)N1CCC(C(=O)NCC(=O)N2CCN(c3nc(-c4cnc(N)nc4C(F)F)nc(N4CCOCC4)n3)CC2)CC1 | EGFR L861Q | KINOMEscan |  | 1 µM |  | remaining binding | 93%
C[C@@H](c1ccc(-n2cnc3c(N)ncnc32)cc1)N1CCc2nn(C)c(Cc3ccccc3)c2C1=O | EGFR del747-752/P753S | KINOMEscan |  | 0.1 µM | reference: DMSO control | remaining binding | 78%
CCOc1cc(N2CCN(C)CC2)ccc1Nc1nc(N)n(C(=O)NCc2ccccc2S(=O)(=O)C(C)C)n1 | EGFR (Homo sapiens, UniProt P00533, G719S) | enzyme activity |  | 10 µM | reference: control | remaining activity | 1.3%
C=CC(=O)N1CCC(COCC(=O)N2CCN(c3nc(-c4cnc(N)nc4C(F)F)nc(N4CCOC[C@@H]4C)n3)CC2)CC1 | EGFR del747-752/P753S | KINOMEscan |  | 1 µM | reference: DMSO control | remaining binding | 100%
COc1ccc(-c2nn(-c3ccc(S(C)(=O)=O)cc3)cc2C=N/N=c2\[nH]c(-c3ccc([N+](=O)[O-])cc3)cs2)cc1 | EGFR | kinase activity, inhibitor |  | 1 µM |  | inhibition | 68.4%
COc1cc(N2CCN(C)CC2)ccc1Nc1nc(N)n(C(=O)NCc2ccccc2S(=O)(=O)C(C)C)n1 | EGFR (Homo sapiens, UniProt P00533, L858R/T790M) | enzyme activity |  | 10 µM | reference: control | remaining activity | 22%
COc1ccc(-c2nn(-c3ccc(S(C)(=O)=O)cc3)cc2/C=N/N=c2\[nH]c(-c3ccc(Br)cc3)cs2)cc1 | EGFR L858R | kinase activity, inhibitor |  | 0.01 µM |  | inhibition | 41%
COc1cc(N2CCN(C)CC2)ccc1Nc1nc(N)n(C(=O)NCc2c(Cl)cccc2Cl)n1 | EGFR del746-750 | enzyme activity |  | 10 µM | reference: control | remaining activity | 3.4%

A few entries again:
Compound | target | test | system | setting | scale | quantity | value
CC(C)Oc1cc(N2CCN(C)CC2)ccc1Nc1nc(N)n(C(=O)NCc2ccccc2S(=O)(=O)C(C)C)n1 | EGFR (Homo sapiens, UniProt P00533, del752-759) | enzyme activity |  | 10 µM | reference: control | remaining activity | 27%
COc1ccc(-c2nn(-c3ccc(S(C)(=O)=O)cc3)cc2C=N/N=c2\[nH]c(-c3ccc([N+](=O)[O-])cc3)cs2)cc1 | EGFR | kinase activity, inhibitor |  | 1 µM |  | inhibition | 68.4%
